Experimental data collected from several papers.
Protocols differ between the studies behind these lines. ± gives the spread as reported.
Organism: SARS-CoV-2

| SMILES | test | test system | conditions | EC50 |
| --- | --- | --- | --- | --- |
| CN(C)CCCCNC(=O)C[C@H](Cc1ccc(F)cc1)NC(=O)[C@@H](Cc1ccc(Cl)cc1Cl)NC(=O)[C@H](N)Cc1ccccc1C#N | viral replication | USA-WA1/2020 | 24 h | 1300 nM |
| CC1(C)C=Cc2c(ccc(C3COc4cc(O)cc(O)c4C3=O)c2O)O1 (stereo not drawn) | viral replication, qRT-PCR | Vero E6 cells, WIV04 | 24 h | 20300 ± 1980 nM |
| [2H]C1([2H])CC[C@@H](C[C@@H](C#N)NC(=O)[C@@H]2[C@@H]3[C@H](CN2C(=O)[C@@H](NC(=O)C(F)(F)F)C(C)(C)C)C3(C)C)C(=O)N1 | viral replication | Canada/VIDO 01/2020 | with: efflux inhibitor CP-100356 | 70 nM |
| O=C(CN1CCCC2=CC3CC(CN4CCCCC34)C21)Nc1ccc(Cl)cc1 (stereo not drawn) | pseudovirus entry | – | pseudovirus | 103000 nM |
| Cc1cc(C(=O)COn2nnc3ccc(S(C)(=O)=O)cc32)c(C)n1C | viral replication, cell-based | – | – | inactive |
| Cc1ccc(CNC(=O)c2cccc(I)c2)cc1C(=O)N[C@H](C)c1cccc2ccccc12 | viral replication | Vero C1008, WK-521 ancestral Wuhan | – | > 100000 nM |
| CO/C1=C\C(C)=C\[C@@H](C)[C@@H](O)[C@@H](C)C/C(C)=C/C=C/[C@H](OC)[C@@H]([C@@H](C)[C@@H](O)[C@H](C)C(=O)/C=C/[C@H](C)[C@H](O)C(C)C)OC1=O | viral replication, item: nucleocapsid protein | Calu-3, Omicron BA.1 | – | 13.4 nM |
| Cc1ccc(N2CC3CC(C2)N3)cc1C(=O)NC1(c2ccc3c4c(cccc24)C(=O)N3C)CC1 | viral replication | Vero C1008, wild type | – | 40 nM |
| CCc1n[nH]c(NC(=O)c2ccc3c(c2)nnn3C)n1 | viral replication | – | – | > 100000 nM |
| C[C@@H]1O[C@@H](n2c3ccccc3c3c4c(c5c6ccccc6[nH]c5c32)CNC4=O)C[C@@H](N)[C@H]1O | viral replication, item: nucleocapsid protein | Calu-3, Omicron BA.2 | – | 44 nM |
| O=C(c1cc(Cl)cc(Cl)c1)N1CCCC2=CC3CC(CN4CCCCC34)C21 (stereo not drawn) | pseudovirus entry | – | pseudovirus | 65600 nM |
| Cc1ccc(OCCN(C)C)cc1C(=O)N[C@H](C)c1cc(-c2cnn(C)c2)cc(-c2cnn(CCN3CCOCC3)c2)c1 | viral replication | Caco-2, icSARS-CoV-2-nLuc reporter | – | 590 nM |
| CCOC(=O)c1c(CS(=O)(=O)c2ccc(Cl)cc2)n(C)c2cc(Br)c(O)c(CN(C)C)c12 | – | Vero C1008, MEX-BC2/2020 | 96 h | > 25000 nM |
| CC(=O)OC1(C)CC(C=C(C)CCC=C(C)C)OC2(C=C(CO)C3CC(=O)C(C)=CC3O2)C1 (stereo not drawn) | viral replication, item: nucleocapsid protein | Calu-3, Omicron BA.1 | – | 700 nM |
| CN1CCN(CCCNC(=O)C[C@H](Cc2ccc(F)cc2)NC(=O)[C@@H](Cc2ccc(Cl)cc2Cl)NC(=O)[C@H](N)Cc2ccccc2C#N)CC1 | viral replication | USA-WA1/2020 | 24 h | 800 nM |
| O=C(NC1CCN(c2ncnc3[nH]cnc23)CC1)c1cccc(NS(=O)(=O)c2ccc(C(F)(F)F)cc2)c1 | viral replication | A549-ACE2, Wuhan-Hu-1 | 24 h | 310 nM |
| COCn1cc(-c2cc(-c3cnn(C(F)F)c3)cc([C@@H](C)NC(=O)c3cc(OCCN(C)C)ccc3C)c2)cn1 | viral replication | Caco-2, icSARS-CoV-2-nLuc reporter | – | 320 nM |
| CC(C)C(=O)OC[C@H]1O[C@@](C#N)(n2ccc(N)nc2=O)[C@H](O)[C@@H]1O | viral replication, qRT-PCR of viral RNA | Caco-2, Washington | – | 2100 ± 400 nM |
| Cc1ccc(N2CC(N3CCC(C)(O)CC3)C2)cc1C(=O)NC1(c2ccc3c4c(cccc24)C(=O)N3C)CC1 | viral replication | Vero C1008, Omicron BA.5 | – | 174 nM |
| C[C@H](c1cccc2ccccc12)N(C)Cc1cccc2[nH]ccc12 | viral replication | Vero E6, USA-WA1/2020 | 24 h | 7880 nM |
| CC(C)C[C@H](NC(=O)c1cc2c(F)ccc(F)c2[nH]1)C(=O)N[C@@H](C[C@@H]1CCNC1=O)C(=O)c1nc2c(F)cccc2s1 | viral replication, RT-qPCR | VeroE6, WK-521 | – | 400 ± 90 nM |
| Oc1c(Br)cc(Br)c2cccnc12 | viral replication, immunofluorescence | Vero E6, omicron | 24 h | 2980 nM |
| COc1cc(O)ccc1CN(C)[C@H](C)c1cccc2ccccc12 | viral replication | Caco-2-hACE2, USA-WA1/2020 | 24 h | > 60000 nM |
| Cc1ccc(CNC(=O)c2ccc(Br)c(F)c2)cc1C(=O)N[C@H](C)c1cccc2ccccc12 | viral replication | Vero C1008, WK-521 ancestral Wuhan | – | 53100 ± 4200 nM |
| CN(C)c1ccc(N(Cc2cc(Cl)cs2)C(=O)Cc2cncc3ccccc23)cc1 | viral replication, dsRNA staining | Calu-3, Omicron BQ.1.1 | – | 200 nM |
| C[C@](C(=O)NC1CCOCC1)(c1cncnc1)N(C(=O)[C@H](F)Cl)c1ccc(OC(F)(F)Cl)cc1 | viral replication | Vero C1008, BA.5 | – | 40 nM |

| SMILES | test | test system | conditions | EC50 |
| --- | --- | --- | --- | --- |
| N#Cc1ccccc1CC(N)C(=O)NC(Cc1ccc(Cl)cc1Cl)C(=O)NC(CC(=O)NCCCc1cccnc1)Cc1ccc(F)cc1 (stereo not drawn) | viral replication | USA-WA1/2020 | 24 h | 300 nM |
| CC(C)(C)[C@H](NC(=O)C(F)(F)F)C(=O)N1C[C@H]2[C@@H]([C@H]1C(=O)N[C@H](C#N)C[C@@H]1CCNC1=O)C2(C)C | viral replication, dsRNA staining | Calu-3, Omicron BQ.1.1 | – | 500 nM |
| O=C1C(O)=C(Nc2ccc(F)cc2)C(=O)c2ccccc21 | viral replication | Calu-3 | 48 h | 1200 ± 200 nM |
| N#Cc1ccccc1C[C@@H](N)C(=O)N[C@H](Cc1ccc(Cl)cc1Cl)C(=O)N[C@H](CC(=O)O)Cc1ccc(F)cc1 | viral replication | USA-WA1/2020 | 24 h | > 10000 nM |
| O=S(=O)(c1cc(Cl)cc(Cl)c1)N1CCCC2=CC3CC(CN4CCCCC34)C21 (stereo not drawn) | pseudovirus entry | – | pseudovirus | 49000 nM |
| CNC(=O)C[C@H](Cc1ccc(F)cc1)NC(=O)[C@@H](Cc1ccc(Cl)cc1Cl)NC(=O)[C@@H](Cc1ccccc1C#N)NC(=O)OC(C)(C)C | viral replication | USA-WA1/2020 | 24 h | > 10000 nM |
| Cc1ccc(NC(=O)CN2CCCC3=CC4CC(CN5CCCCC45)C32)c(Cl)c1 (stereo not drawn) | pseudovirus entry | – | pseudovirus | 77400 nM |
| Cc1ccc(OCCN(C)C)cc1C(=O)N[C@H](C)c1cc(-c2cnn(CCN3CCOCC3)c2)cc(-c2ccn(C)n2)c1 | viral replication | Caco-2, icSARS-CoV-2-nLuc reporter | – | 800 nM |
| CC(=O)N(CCCc1cn(-c2ccc(CN3CCOCC3)cc2)nn1)CCNc1ccnc2cc(Cl)ccc12 | viral replication | Vero 76, MUC-IMB-1/2020 | 30 h | 2400 ± 3700 nM |
| Cc1ccc(CNC(=O)c2cc(F)cc(Br)c2)cc1C(=O)N[C@H](C)c1cccc2ccccc12 | viral replication | Vero C1008, WK-521 ancestral Wuhan | – | 65100 ± 2600 nM |
| C1=C2CCCN(Cc3ccccc3)C2C2CC1C1CCCCN1C2 (stereo not drawn) | pseudovirus entry | – | pseudovirus | 163000 nM |
| CN(C)CCCNC(=O)C[C@H](Cc1ccc(F)cc1)NC(=O)[C@@H](Cc1ccc(Cl)cc1Cl)NC(=O)[C@H](N)Cc1ccccc1C#N | viral replication | USA-WA1/2020 | 24 h | 4200 nM |
| Oc1ccc(CCCCCCCCC(O)c2c(O)cccc2O)cc1O (stereo not drawn) | MTT | Vero E6/TMPRSS2, WK-521 ancestral | – | 5400 nM |
| CN(C)CCCCNC(=O)C[C@H](Cc1ccc(F)cc1)NC(=O)[C@@H](Cc1ccc(Cl)cc1Cl)NC(=O)C(N)Cc1ccccc1C(N)=O (stereo partly drawn) | viral replication | USA-WA1/2020 | 24 h | > 10000 nM |
| C[C@@H](NCCCc1cccc(C(F)(F)F)c1)c1cccc2ccccc12 | viral replication, plaque | Vero C1008 | 16 h | 2930 ± 380 nM |
| Cc1ccc(CNC(=O)c2c(Cl)cc(Cl)cc2Cl)cc1C(=O)N[C@H](C)c1cccc2ccccc12 | viral replication | Vero C1008, WK-521 ancestral Wuhan | – | 34900 ± 2000 nM |
| O=C(CN1CCCC2=CC3CC(CN4CCCCC34)C21)Nc1cc(Cl)cc(OC(F)(F)F)c1 (stereo not drawn) | pseudovirus entry | – | pseudovirus | 14700 nM |
| Cc1cc(Cl)ccc1C(=O)NCc1ccc(C)c(C(=O)N[C@H](C)c2cccc3ccccc23)c1 | viral replication | Vero C1008, WK-521 ancestral Wuhan | – | > 100000 nM |
| COc1ccc(F)c2[nH]c(C(=O)N[C@@H](CC(C)C)C(=O)N[C@@H](C[C@@H]3CCNC3=O)C(=O)c3nc4ccccc4s3)cc12 | viral replication, RT-qPCR | VeroE6, WK-521 | – | 3400 ± 150 nM |
| NCCNc1ccnc2cc(Cl)ccc12 | viral replication | Vero 76, MUC-IMB-1/2020 | – | 5900 ± 3500 nM |
| Cc1ccc(N)cc1C(=O)N[C@H](C)c1cccc2ccccc12 | viral replication | USA-WA1/2020 | 24 h | 20000 nM |
| Cc1cc(C)n(-c2nc(-c3ccccc3)cc(=O)n2CC(=O)Nc2cccc([N+](=O)[O-])c2)n1 | viral RNA, qPCR | wild type | 24 h | 1950 nM |
| O=C(c1cncc2cc[nH]c12)N1CCC(=C2c3ccccc3CS(=O)(=O)c3ccccc32)CC1 | viral replication | WA1 | – | 10 nM |
| CC(NC(=O)C(Cc1ccccc1)NC(=O)OCc1ccccc1)C(=O)CF (stereo not drawn) | virus-induced cytopathic effect | Vero E6, USA-WA1/2020 | 72 h | 130 nM |
| CCOC(=O)CNC(=O)c1ccccc1[Se][Se]c1ccccc1C(=O)NCC(=O)OCC | viral replication, RT-qPCR | Vero | 48 h | 21300 nM |

For quick reference, copied from above:
| SMILES | test | test system | conditions | EC50 |
| --- | --- | --- | --- | --- |
| C[C@](C(=O)NC1CCOCC1)(c1cncnc1)N(C(=O)[C@H](F)Cl)c1ccc(OC(F)(F)Cl)cc1 | viral replication | Vero C1008, BA.5 | – | 40 nM |
| CN1CCN(CCCNC(=O)C[C@H](Cc2ccc(F)cc2)NC(=O)[C@@H](Cc2ccc(Cl)cc2Cl)NC(=O)[C@H](N)Cc2ccccc2C#N)CC1 | viral replication | USA-WA1/2020 | 24 h | 800 nM |
| COCn1cc(-c2cc(-c3cnn(C(F)F)c3)cc([C@@H](C)NC(=O)c3cc(OCCN(C)C)ccc3C)c2)cn1 | viral replication | Caco-2, icSARS-CoV-2-nLuc reporter | – | 320 nM |
| O=C(c1cncc2cc[nH]c12)N1CCC(=C2c3ccccc3CS(=O)(=O)c3ccccc32)CC1 | viral replication | WA1 | – | 10 nM |
| Cc1ccc(OCCN(C)C)cc1C(=O)N[C@H](C)c1cc(-c2cnn(C)c2)cc(-c2cnn(CCN3CCOCC3)c2)c1 | viral replication | Caco-2, icSARS-CoV-2-nLuc reporter | – | 590 nM |
